Experimental data pooled from the literature.
Parts stem from different laboratories: compare values within a part only.

Series 1
Target: Sal-like protein 4, full length isoform A (SALL4, Homo sapiens, UniProt Q9UJQ4, residues 1-1053)
UniProt Q9UJQ4, sequence (whole entry, looked up): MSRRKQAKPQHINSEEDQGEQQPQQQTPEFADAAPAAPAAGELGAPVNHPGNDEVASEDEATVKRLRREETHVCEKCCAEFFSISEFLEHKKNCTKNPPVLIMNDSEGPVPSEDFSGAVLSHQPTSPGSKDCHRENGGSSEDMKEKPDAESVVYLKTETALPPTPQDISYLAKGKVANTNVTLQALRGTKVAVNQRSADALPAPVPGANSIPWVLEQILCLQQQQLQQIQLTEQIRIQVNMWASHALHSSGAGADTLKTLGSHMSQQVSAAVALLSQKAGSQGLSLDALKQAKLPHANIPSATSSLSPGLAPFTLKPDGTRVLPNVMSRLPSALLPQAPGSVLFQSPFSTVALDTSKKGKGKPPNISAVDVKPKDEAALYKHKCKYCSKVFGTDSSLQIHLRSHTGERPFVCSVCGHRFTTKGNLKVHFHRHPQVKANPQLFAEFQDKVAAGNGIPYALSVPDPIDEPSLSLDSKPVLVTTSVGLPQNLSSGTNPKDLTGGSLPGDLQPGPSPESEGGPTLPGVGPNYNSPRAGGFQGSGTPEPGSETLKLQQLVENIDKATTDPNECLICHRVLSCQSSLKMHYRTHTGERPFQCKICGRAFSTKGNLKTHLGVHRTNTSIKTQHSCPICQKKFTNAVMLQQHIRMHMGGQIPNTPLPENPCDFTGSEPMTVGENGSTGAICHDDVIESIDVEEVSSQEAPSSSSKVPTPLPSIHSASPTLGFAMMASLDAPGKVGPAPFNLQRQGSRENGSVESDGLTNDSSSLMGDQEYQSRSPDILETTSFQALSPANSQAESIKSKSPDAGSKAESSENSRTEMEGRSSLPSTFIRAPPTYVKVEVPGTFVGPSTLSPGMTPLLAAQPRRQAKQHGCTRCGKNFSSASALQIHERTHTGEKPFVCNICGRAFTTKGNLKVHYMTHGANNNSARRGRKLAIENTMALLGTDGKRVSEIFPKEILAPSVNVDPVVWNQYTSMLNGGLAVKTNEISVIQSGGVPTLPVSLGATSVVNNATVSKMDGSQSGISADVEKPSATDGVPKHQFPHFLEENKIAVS
Method: universal PBM
Form: double-stranded DNA, one strand shown
Medium: in vitro
Tested at: 600 nM
Notes: 8-mer, flanks averaged, mean of replicates
Reading: higher = stronger binding
| Strand | E-score |
| --- | --- |
| TGCACCAA | 0.0195 |
| CAAATTGG | 0.215 |
| ACTTACTA | 0.0472 |
| GAGCGTGC | -0.182 |
| ACTTGACA | 0.0665 |

Series 2
Target: Histone acetyltransferase KAT6A, winged helix 1, GST fusion (KAT6A, Homo sapiens, UniProt Q92794, residues 1-85)
Method: protein binding microarray
Form: double-stranded DNA, one strand shown
Medium: in vitro
Tested at: not given
Notes: 8-mer, flanks averaged, mean of 2 arrays, mostly near background
Relative to: not given
Reading: higher = stronger binding
Construct (chain): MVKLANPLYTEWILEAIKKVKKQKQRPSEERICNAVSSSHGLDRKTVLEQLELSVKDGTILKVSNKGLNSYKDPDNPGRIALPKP
| Strand | E-score |
| --- | --- |
| CTGATGTA | -0.104 |
| ACAGTGCC | -0.0416 |
| CCTGGTAA | -0.147 |
| CAATTTGC | -0.156 |
| CTAGGGAG | -0.158 |

Series 3
Target: Interferon regulatory factor 3, full length, phosphomimetic (IRF3, Homo sapiens, UniProt Q14653, residues 1-427, S386D/S396D/S398D/S402D/T404D/S405D)
Method: protein-binding microarray
Form: double-stranded DNA, one strand shown
Medium: in vitro
Tested at: 2540 nM top
Notes: 60-bp whole probe
With: salmon DNA 0.4 mg/ml
Relative to: random background probes
Reading: higher = stronger binding
Residues (chain): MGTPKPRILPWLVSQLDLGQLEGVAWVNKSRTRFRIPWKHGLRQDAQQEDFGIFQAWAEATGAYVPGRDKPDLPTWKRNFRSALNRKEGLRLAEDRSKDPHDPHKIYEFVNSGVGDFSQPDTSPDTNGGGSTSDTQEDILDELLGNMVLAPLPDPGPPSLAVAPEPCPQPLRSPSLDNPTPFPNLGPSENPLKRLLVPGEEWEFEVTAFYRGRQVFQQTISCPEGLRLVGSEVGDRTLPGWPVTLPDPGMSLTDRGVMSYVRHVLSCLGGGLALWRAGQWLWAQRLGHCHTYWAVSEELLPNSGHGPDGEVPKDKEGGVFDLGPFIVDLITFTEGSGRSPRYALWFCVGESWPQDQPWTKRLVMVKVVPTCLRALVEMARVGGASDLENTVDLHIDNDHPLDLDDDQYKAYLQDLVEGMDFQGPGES
| Strand | fitted relative affinity |
| --- | --- |
| GCCTAGCACACCTTTGTTTTTTTCTATATGTGCTAGGTCTTGATTCGCTTGACGCTGCTG | 1.56 z-score |
| GCCTAGCACTTAGAACTGAGTATCGAGTAGTGCTAGGTCTTGATTCGCTTGACGCTGCTG | -0.267 z-score |
| GCCTAGCACTAAGAAAAGCCACCAGGACCGTGCTAGGTCTTGATTCGCTTGACGCTGCTG | -0.638 z-score |
| GCCTAGCACGTGAACCGGTCTCTCAGACCGTGCTAGGTCTTGATTCGCTTGACGCTGCTG | 0.795 z-score |

Single results of other studies
| Substance | target | test | system | setting | scale | endpoint | result |
| --- | --- | --- | --- | --- | --- | --- | --- |
| PhoQ, residues 284 288 289 292 302 303 NLMGRA | PhoP, residues 12 14 15 18 19 AYFRS (Escherichia coli, UniProt P23836) | Sort-seq, refers to: YFP reporter | E. coli | PhoQ-PhoP variant library, with: 10 µM Mg2+ | relative to: high Mg2+ state, higher = stronger signaling | fold induction | 8.92 |
